Assay results from different studies.
Numbered parts are unrelated; each lists some results of a single study.

Sample 1
Target: Histone acetyltransferase KAT6A, winged helix 1, GST fusion (KAT6A, Homo sapiens, UniProt Q92794, residues 1-85)
Technique: protein binding microarray
Molecule type: double-stranded DNA, one strand shown
Medium: in vitro
Tested at: not given
Setting: 8-mer, flanks averaged, mean of 2 arrays, mostly near background
Reference: not given
Direction: higher = stronger binding
Target sequence (chain): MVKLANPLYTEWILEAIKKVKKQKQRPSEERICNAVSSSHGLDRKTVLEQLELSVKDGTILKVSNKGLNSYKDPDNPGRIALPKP
Oligonucleotide	E-score
GATCCGAA	-0.155
ACGCTGCG	0.227
CCCCGTTC	0.139
ACTTCTTC	-0.134
AAAGGCGT	0.0989
CTTAAGAC	0.105
TAGGGCCA	-0.0454
TGGGTGAA	-0.0467
ACCTCTCT	-0.229
GTAGGACA	-0.00763
AATCGGAC	-0.0802
AGTTATCA	-0.175
AACCCTCT	-0.084
ACGATTAC	-0.0437
AGAAATCT	-0.0813
GTAAGAGA	0.0458
ATTGTCTC	-0.0914
AGGTATGC	-0.13
CTTTGTTC	-0.0345
CGGCACAA	0.182
AGCAAATG	-0.278
CAGTTTTC	-0.0792
TAGTAAGA	-0.0564
ACTACAGA	-0.106
GTTTAAGA	-0.0508

Sample 2
Target: Ras GTPase-activating protein-binding protein 1, RRM domain (G3BP1, Homo sapiens, UniProt Q13283)
Sequence of UniProt Q13283 (whole entry, looked up): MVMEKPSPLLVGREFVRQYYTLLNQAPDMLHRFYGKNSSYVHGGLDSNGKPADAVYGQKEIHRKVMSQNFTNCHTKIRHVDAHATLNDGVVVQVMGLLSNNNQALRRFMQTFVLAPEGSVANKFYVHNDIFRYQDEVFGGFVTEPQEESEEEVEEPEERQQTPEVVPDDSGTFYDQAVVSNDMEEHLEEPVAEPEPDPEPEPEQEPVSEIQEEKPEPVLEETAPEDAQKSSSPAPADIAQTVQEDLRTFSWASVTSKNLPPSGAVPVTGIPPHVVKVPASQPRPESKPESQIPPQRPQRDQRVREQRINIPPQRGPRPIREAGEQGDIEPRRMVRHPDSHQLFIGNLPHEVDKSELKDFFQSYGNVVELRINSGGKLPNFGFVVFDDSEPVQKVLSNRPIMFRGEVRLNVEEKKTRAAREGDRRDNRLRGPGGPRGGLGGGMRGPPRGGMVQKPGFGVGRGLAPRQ
Technique: RNA Bind-n-Seq
Molecule type: RNA
Medium: in vitro
Tested at: 1 µM
Setting: whole 134-nt RNA, ends assumed
With: 150 mM KCl
Reference: input library
Direction: higher = stronger binding
Oligonucleotide	log2 enrichment
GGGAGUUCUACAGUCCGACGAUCAGUCCUGUGCUACACAUCGUAUGUACCGAAUCGGUUUUUGGGGUUUUUGGUUUUUGGGAAAGUAUUAUGUUACGCCGUUCGGAUCUGCACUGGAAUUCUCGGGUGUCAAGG	-0.164
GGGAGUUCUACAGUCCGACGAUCUUGCUGUCACCCGCUGCCUGUCUGCAGGAUCCCGGAUUCCGUAUCAGGGGACCGAAAUUAGUCGGAAAAUAGGAAGCAGGUGCUCGCUUGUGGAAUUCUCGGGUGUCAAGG	-0.347
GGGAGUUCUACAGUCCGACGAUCUUCUGAGAAGGUUGCGCAGCAGCUGUGCCCGGCAGUCUAGAGGCGCAGAAGAGGAAGCCAUCGCCUGGCCCCGGCUCUCUGGACCUUGUCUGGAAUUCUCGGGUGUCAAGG	-0.741
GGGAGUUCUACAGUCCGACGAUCAAGUCCUGUGCUACACAUCGUAUGUACCGAAUCGGAAAGGUUUUUUUGGAAAAAGGAAAGUAUUAUGUUACGCCGUUCGGAUCUGCACUUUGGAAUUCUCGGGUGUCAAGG	-0.317
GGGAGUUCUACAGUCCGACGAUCAAGUCCUGUGCUACACAUCGUAUGUACCGAAUCGGGAAAAAAAGGGUUUGGGAGGGAAAGUAUUAUGUUACGCCGUUCGGAUCUGCACUUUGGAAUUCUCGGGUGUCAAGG	0.654
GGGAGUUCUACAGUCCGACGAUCAAGUCCUGUGCUACACAUCGUAUGUACCGAAUCGGGAAAGGGUUUGGGUUUUUGGGAAAGUAUUAUGUUACGCCGUUCGGAUCUGCACUUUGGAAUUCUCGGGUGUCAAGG	0.528
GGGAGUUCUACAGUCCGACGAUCCAAGUCCUGUGCUACACAUCGUAUGUACCGAAUCGGAAAGGGAAAGGGAAAGGGGAAAGUAUUAUGUUACGCCGUUCGGAUCUGCACUUCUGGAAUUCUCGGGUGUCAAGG	-0.0954
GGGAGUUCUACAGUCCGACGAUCAGUCCUGUGCUACACAUCGUAUGUACCGAAUCGGUUUUUUUGGAAAGGUUUUUUUGGAAAGUAUUAUGUUACGCCGUUCGGAUCUGCACUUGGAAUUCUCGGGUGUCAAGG	-0.376
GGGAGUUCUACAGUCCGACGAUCUGGGAGGUGGAUUUUGUUUAUUUUUUUAGCUCAAUUCCAGGGGUGGGAAUUUUUUUUUAAUAUGUGUCAUGAAUAAAGUUGUUUUUGAAAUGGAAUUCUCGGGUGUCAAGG	2
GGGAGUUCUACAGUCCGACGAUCCUCAAGUCCUGUGCUACACAUCGUAUGUACCGAAUCGGGGAAGGGAAGGGAAGGAAAGUAUUAUGUUACGCCGUUCGGAUCUGCACUUCCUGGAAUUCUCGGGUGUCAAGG	-0.238
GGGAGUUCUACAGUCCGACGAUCAAGUCCUGUGCUACACAUCGUAUGUACCGAAUCGGGGUGGGGUUUGGGGUUUGGGGAAAGUAUUAUGUUACGCCGUUCGGAUCUGCACUUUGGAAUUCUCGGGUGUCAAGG	1.12
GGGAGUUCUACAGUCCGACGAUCUGGGAGGUGGAUUUUGUUUAUUUUUUUAGCUCAUUUCCAGGGGUGGGAAUUUUUUUUUAAAAUGUGUCAUGAAUAAAGUUGUUUUUGAAAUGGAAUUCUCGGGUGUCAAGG	1.58
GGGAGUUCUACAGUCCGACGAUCAAGUCCUGUGCUACACAUCGUAUGUACCGAAUCGGGGAAAGGGGUUUGGGGAGGGGAAAGUAUUAUGUUACGCCGUUCGGAUCUGCACUUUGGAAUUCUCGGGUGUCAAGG	1.45
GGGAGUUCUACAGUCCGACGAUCCAAGUCCUGUGCUACACAUCGUAUGUACCGAAUCGGAAAAAGGUUUGGUUUUUGGAAAGUAUUAUGUUACGCCGUUCGGAUCUGCACUUCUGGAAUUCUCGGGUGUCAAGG	-0.232

Sample 3
Target: Prothrombin, mature alpha-thrombin (F2, Homo sapiens, UniProt P00734)
Technique: aptamer microarray, sandwich
Molecule type: DNA with 2'F-ANA
Medium: in vitro
Tested at: 200 nM
Setting: whole 15-mer aptamer, many near background
With: Cy3 exosite-II aptamer, 400 nM
Direction: higher = stronger binding
Oligonucleotide: GGTTGGTGTGGTTGG
Modification	mean fluorescence intensity [a.u.]
2'F-ANA at 1 2 3 4 7 8 10 11 13	55.4
2'F-ANA at 1 2 3 5 6 8 9 10 15	46.9
2'F-ANA at 2 9 10 11 12 13	151
2'F-ANA at 3 6 7 8 12	1490
2'F-ANA at 1 3 4 5 8 10 14 15	60.1
2'F-ANA at 3 4 5 8 9 10 11 12 13 14	87.8
2'F-ANA at 4 5 7 9 10 11 14 15	51.9
2'F-ANA at 5 10 12	51
2'F-ANA at 1 2 3 4 5 7 10 12 14	46.8
2'F-ANA at 3 10 11 14 15	332
2'F-ANA at 2 4 6 8 10 11 13	120
2'F-ANA at 3 4 6 8 10 13 14 15	133
2'F-ANA at 4 6 7 8 10 12 14	66.1
2'F-ANA at 3 5 6 7 9 10 11 14	48.9
2'F-ANA at 3 8 9 10 11 12 13	558
2'F-ANA at 1 3 5 10 13 14 15	50.1
2'F-ANA at 2 3 5 7 11 12	175
2'F-ANA at 4 5 6 8 9 14	45.9
2'F-ANA at 1 2 4 5 6 9 11 12 14 15	92.9
2'F-ANA at 2 3 4 5 7 11 12 13 15	98.4

Sample 4
Target: Interferon regulatory factor 7, full length, phosphomimetic (IRF7, Homo sapiens, UniProt Q92985, residues 1-503, S101K/S471D/S472D/S475D/S476D/S477D/S483D/S484D/S487D)
Sequence of UniProt Q92985 (whole entry, unmodified, looked up): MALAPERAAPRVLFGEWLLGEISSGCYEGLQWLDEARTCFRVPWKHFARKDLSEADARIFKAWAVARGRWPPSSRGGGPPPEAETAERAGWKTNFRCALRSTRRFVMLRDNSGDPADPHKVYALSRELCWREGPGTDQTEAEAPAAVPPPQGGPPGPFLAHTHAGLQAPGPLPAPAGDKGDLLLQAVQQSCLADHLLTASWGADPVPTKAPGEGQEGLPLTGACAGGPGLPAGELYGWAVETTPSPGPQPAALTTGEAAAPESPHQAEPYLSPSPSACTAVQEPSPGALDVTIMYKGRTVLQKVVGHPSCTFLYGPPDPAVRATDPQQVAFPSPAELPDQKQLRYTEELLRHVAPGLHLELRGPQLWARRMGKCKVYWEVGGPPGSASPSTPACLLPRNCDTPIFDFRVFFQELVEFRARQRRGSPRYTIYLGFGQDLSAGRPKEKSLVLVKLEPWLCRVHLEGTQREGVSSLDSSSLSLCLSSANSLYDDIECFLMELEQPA
Technique: protein-binding microarray
Molecule type: double-stranded DNA, one strand shown
Medium: in vitro
Tested at: 250 nM
Setting: 60-bp whole probe
With: salmon DNA 0.4 mg/ml
Reference: random background probes
Direction: higher = stronger binding
Constant ends, left off below: GCCTAGCAC … GTCTTGATTCGCTTGACGCTGCTG
Oligonucleotide	log fluorescence [z-score]
TCATTCTCCTATTTAAGACTGTGCTAG	2.34
TTAGGACTGTTTCTCCTTTAGTGCTAG	2.52
TGGACTGTGTGTTTGAGTCTGTGCTAG	-0.416
CCCACCATCTAGTTCTGCTTGTGCTAG	-0.00028
TTACGTTTCCTACTGCTTTAGTGCTAG	1.61
GACGGTTTCGACTTTCCGGACGTGCTA	10.9
GACGGTATCGCTATCGGGACGTGCTAG	0.357
CACGGTTTCCTTTTCCTGACGTGCTAG	6.66
GACGAACTGAGTCTCGAGGCGTGCTAG	-0.0817
TTAGAACTGGGGACTGGATCAGTGCTA	-0.545
TTAGGACTGGCTTTCGGTTAGTGCTAG	0.572
GAAGAACTGAGACTGGAGACGTGCTAG	-0.282
GTCTTTGCAAAAGCTCCACCGTGCTAG	1.19
TTAGGTTTCGACTTTCAGTTAGTGCTA	11.1
GTCGGTTTCGACTTTCGGGACGTGCTA	12.1
GAAACACTAATTTTTACTTTGTGCTAG	0.636
GACGATTTCGGGACTAGAGACGTGCTA	0.359
AGACACCCCTTTGGTGCCACGTGCTAG	0.0149
GACGGTATCGACACTCGGGACGTGCTA	-0.162
TTAGGTATCGGGTATAGGTTAGTGCTA	0.536
TTAGGTATCCTACGGCTTTAGTGCTAG	-0.547
TTGTAGATGCCTTTCTCTTGGTGCTAG	-0.25
TTTTTTTTTGGAATGTCTTCGTGCTAG	0.441
TCATAATTCCTGCCTGAGACTGTGCTA	0.229
TTAGATTTCAGTATCTATTAGTGCTAG	0.471

Sample 5
Target: Centromere-binding protein 1, full length, N-terminal tag (CBF1, Saccharomyces cerevisiae, UniProt P17106, residues 1-351)
Sequence of UniProt P17106 (whole entry, looked up): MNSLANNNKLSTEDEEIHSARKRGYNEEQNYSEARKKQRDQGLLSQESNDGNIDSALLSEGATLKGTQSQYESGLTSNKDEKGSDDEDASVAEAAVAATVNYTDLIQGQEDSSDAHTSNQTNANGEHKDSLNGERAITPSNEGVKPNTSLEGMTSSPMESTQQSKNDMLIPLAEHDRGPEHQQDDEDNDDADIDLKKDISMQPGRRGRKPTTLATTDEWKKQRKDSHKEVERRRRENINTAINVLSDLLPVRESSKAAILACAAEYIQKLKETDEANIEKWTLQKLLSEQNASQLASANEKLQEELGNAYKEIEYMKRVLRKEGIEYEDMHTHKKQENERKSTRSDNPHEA
Technique: protein-binding microarray
Molecule type: double-stranded DNA, one strand shown
Medium: in vitro
Tested at: 0.8 µM
Setting: whole 60-bp probe, no competitor
Direction: higher = stronger binding
Oligonucleotide	fluorescence intensity
CTAAACGAAACAAATCATGTGTTACCCGTCCTGTTCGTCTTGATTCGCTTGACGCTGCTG	1020 a.u.
GAAGTTTGACTAATCAGCGTGAACTGACTGTAGTAGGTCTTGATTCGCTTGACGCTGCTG	524 a.u.
CTAGGGCAGATACTTCGTGTGACAATGGCCAATTTCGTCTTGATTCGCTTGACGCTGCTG	508 a.u.
CTAATATTTTTCATCCACGTTTTTGTAGTTTATTTCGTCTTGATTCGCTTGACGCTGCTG	672 a.u.
CCTAACTACTATACTGTCGTGACATAGCTTCGTACAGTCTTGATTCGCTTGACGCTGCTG	641 a.u.
GAATTTCAACCTTTGCACGATCTTTCAACGCTGTAGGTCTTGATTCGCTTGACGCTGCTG	561 a.u.
GAAATACTATTAATCTGTGTTTATGCCACCTGATAGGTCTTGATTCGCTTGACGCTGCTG	618 a.u.
CTAAATTGCGGGCAGCACATGTATATATTATACTTCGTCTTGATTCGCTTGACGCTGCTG	669 a.u.
CTAATATCTGACACGCACGTGATGACCACGTAATTCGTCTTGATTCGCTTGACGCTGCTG	7260 a.u.
GAACCACAACTGGCTGAGATCACGTGAATGGCTTAGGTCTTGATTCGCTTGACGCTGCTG	18400 a.u.
CCTAACTACTATAATCACGCTTCATAGCTTCGTACAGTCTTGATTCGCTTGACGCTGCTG	649 a.u.
CTATAAGCTTGGCGTGATGTGATATATACTTGTTTCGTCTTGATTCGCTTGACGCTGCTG	630 a.u.
GAATACATACGTACTCTCGTGCAAGGAAAAATATAGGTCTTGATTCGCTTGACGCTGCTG	648 a.u.
GAAGGGGCACAAATACAGGTGATTCGAGAAATATAGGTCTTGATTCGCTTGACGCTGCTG	631 a.u.
CCTAACTACTATAGTGATCGCAAATAGCTTCGTACAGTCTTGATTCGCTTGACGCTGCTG	522 a.u.
GAAGGCGGTTTTTCGCGTGTGACTCAATGTCGATAGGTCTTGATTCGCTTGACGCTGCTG	664 a.u.
CTATTTTTCTTCTGTCAGGTGAAAGTATATGACTTCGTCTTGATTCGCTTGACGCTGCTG	1160 a.u.
TGTACGAAGCTATGCGTCACCAGTATAGTAGTTAGGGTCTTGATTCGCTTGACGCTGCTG	511 a.u.
CTATGGGTATACAATCACGTGTACTATCAAATATTCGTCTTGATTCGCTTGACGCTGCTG	9380 a.u.
CTAAAGAAATTGATTCTGATGCTTTATTTTTTATTCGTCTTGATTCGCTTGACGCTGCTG	498 a.u.

A few entries again (sample 1):
Oligonucleotide	E-score
TGGGTGAA	-0.0467
ACCTCTCT	-0.229
GTAGGACA	-0.00763
AATCGGAC	-0.0802
AGTTATCA	-0.175
AACCCTCT	-0.084
ACGATTAC	-0.0437
AGAAATCT	-0.0813
GTAAGAGA	0.0458
ATTGTCTC	-0.0914
AGGTATGC	-0.13
CTTTGTTC	-0.0345
CGGCACAA	0.182
AGCAAATG	-0.278
